Measurements from different studies.
Each line is one published result; not all experiments were run side by side. Values joined by “and” are separate records of one study, mostly repeats; a detail may differ. ± gives the spread as reported.

SMILES	test	test system	setting	scale	endpoint	value
CN(CCCN1CCN(C(=O)CN2CCN(CC(=O)[O-])CCN(CC(=O)[O-])CCN(CC(=O)[O-])CC2)CC1)c1ccc2nccc(C(=O)NCC(=O)N3CC(F)(F)C[C@H]3C#N)c2c1.[68Ga+3]		mice, HT-1080.hFAP and HT-1080 wild-type xenografts, lung	iv, 500 pmol, 4 h post injection		uptake	0.2 ± 0.1 %IA/g
Cc1coc([C@H]2C[C@H]3[C@@H](CF)SC(N)=N[C@@]3(c3ccc(F)cc3F)CO2)n1		male 129/SVE mouse, CSF	subcutaneous, 80 mg/kg, 5 h		CSF concentration	39 nM
Nc1nc2c(ncn2COCCO)c(=O)[nH]1	shake-flask	methanol-ethanol mixture	298.2 K, mass fraction 0.1		solubility	695 µg/mL
CCOC(=O)N1C[C@@H](c2cc(F)c(O)c(F)c2)N[C@@H](c2cccc(C(F)(F)F)c2)C1	shake-flask, LC-HRMS	aqueous buffer	16 h, pH 6.8		solubility	< 4 µM
C[C@@H](Nc1cc(F)cc(F)c1)c1cc(C(=O)N(C)C)cc2c(=O)cc(N3CCOCC3)oc12	refers to: Diarrhea	advanced solid tumour patients	oral, dose not given, dose expansion		patients discontinuing for AE	0%
CO[C@@H]1[C@H](O)[C@@H](CO)O[C@H]1n1c([N+](=O)[O-])nc2c(=O)[nH]c(N)nc21	depurination, RP-HPLC	citrate-phosphate buffer 0.5 mM	1608 min, pH 2, 37 °C		nucleoside remaining fraction	0.241
CCOC(=O)N1C[C@@H](c2cccnc2)N[C@@H](c2ccc(F)c(C#N)c2)C1	shake-flask, LC-HRMS	aqueous buffer	16 h, pH 6.8		solubility	> 750 µM
CCCCc1ccc(-c2ccc(C#N)cc2)cc1		Sprague-Dawley rat, female, placenta	5000 ng/mL in perfusate, 50 (unit not given), high dose, mixture of 21 LCMs		placental accumulation	484 ± 601 ng/g
CNCCOC12CC3(C)CC(C)(CC(Cn4ncc(-c5ccc(N6CCc7cccc(C(=O)Nc8nc9ccccc9s8)c7C6)nc5C(=O)O)c4C)(C3)C1)C2		beagle dog, male, anaesthetised	intravenous bolus, 0.03 mg/kg, 15 min	baseline: baseline	QRS duration change	0 ms
Cl.[2H]C([2H])([2H])CC(=O)c1cnc(NC(=O)C2CC2)cc1Nc1cccc(-c2ncn(C([2H])([2H])[2H])n2)c1OC	geometric mean	human	oral, 10 mg once daily, day 1, fasted, liquid, multiple dose		AUC(0-inf)	787 ng·h/mL
CCN1CCN(Cc2ccc(NC(=O)c3ccc(C)c(NC(=O)c4cncc(-c5cccs5)c4)c3)cc2C(F)(F)F)CC1		C57BL/6 mice, epithelial lining fluid	intraperitoneal, 20 mg/kg		apparent clearance	51 mL/min/kg
CC(C)(C(=O)N1CCOc2c(C#N)cncc2C1)C(F)F		human, both sexes	oral, 30 mg single dose		subjects with headache TEAE	0%
NC1(C(=O)N[C@@H](CCO)c2ccc(Cl)cc2)CCN(c2nc[nH]c3nccc2-3)CC1		metastatic CRPC patients	400 mg b.i.d., grade 3 to 4, treatment-related, with: enzalutamide 160 mg daily		incidence of Somnolence	0%
COc1ccc([C@@H](O)c2cc(-c3ncnc4cc(N5CCOCC5)ccc34)c(F)cc2Cl)nn1		locally advanced rectal cancer	all dose levels overall, with: capecitabine and radiotherapy		TEAE, decreased appetite	32%
Cc1ccc(C(=O)Nc2ccnc(S(N)(=O)=O)c2)c(N2CCCC(F)(F)CC2)n1		rhesus macaque, plasma	oral, 3 mg/kg, noxious stimulus test		total plasma concentration	1.46 to 3.56 µM
N#Cc1ccc2c(c1)[C@H]1CCCN(C(=O)c3ccc4[nH]cnc4c3)[C@H]1C2		human, plasma	oral, 240 mg once daily, steady state		Cmax steady state	14.8 µM
CCOC(=O)N1C[C@@H](c2ccc(Cl)cc2)N[C@H](c2ccc(C(=O)OC)cc2)C1	shake-flask, LC-HRMS	aqueous buffer	16 h, pH 6.8		solubility	< 4 µM
CNCc1ccc(-c2[nH]c3cc(F)cc4c3c2CCNC4=O)cc1	refers to: Headache	human patients	oral, dose not given, all grades, all doses		patients with adverse event	19.6%
COC(=O)c1ccc([C@H]2COC(C)(C)[C@@H](c3ccc(Cl)c(Cl)c3)N2)cc1	shake-flask, LC-HRMS	aqueous buffer	16 h, pH 6.8		solubility	< 4 µM
CC(C)=CCC/C(C)=C/C(=O)O.Cc1cc(/C=C/C#N)cc(C)c1Nc1ccnc(Nc2ccc(C#N)cc2)n1		aqueous buffer	pH 1.2		equilibrium solubility	8.22 ± 0.09 µg/mL

SMILES	test	test system	setting	scale	endpoint	value
C[C@@H](NC(=O)N1C(=O)[C@H](Cc2ccnc(N)c2)[C@H]1C(=O)O)C1CCCCC1	UPLC-MS/MS	healthy adult Chinese volunteers, plasma	continuous intravenous infusion, 0.6 mg/kg/h, day 1 of 5-day infusion, geometric mean		Css	1600 ng/mL
CCc1c(-c2ccccc2)c(-c2ccccc2)nn1-c1ccccc1-c1cccc(OCC(=O)O)c1		Sprague-Dawley rat	intravenous		MRT(0-inf) observed	0.752 h and 1.04 h and 0.717 h
CNC(=O)c1ccc(-c2cnc3ncc(Cc4ccc5ncccc5c4)n3n2)cc1F	refers to: Nausea	hepatocellular carcinoma patients	oral, 600 mg twice daily, expansion cohort, grade 3-4		patients with adverse event	9%
C[C@@H]1CCO[C@H]2Cn3cc(C(=O)NCc4ccc(F)cc4F)c(=O)c(O)c3C(=O)N12		human paediatric patients, weight sample E to under sample F kg, plasma	oral, 35 mg film-coated tablet, 24 h, steady state, geometric mean, population PK post-hoc, N 8		trough concentration (C24)	608 ng/mL
O=c1[nH]c(=O)n([C@H]2C[C@H](O)[C@@H](CO)O2)cc1CCCCC[18F]		male CD-1 nu/nu mice, RG2 tumour, liver	intravenous, dose not given, 2 h		biodistribution	0.38 ± 0.05 %ID/g
CCOC(=O)N1C[C@@H](c2cnn(C)c2)N[C@@H](c2ccc(C#N)cc2)C1	shake-flask, LC-HRMS	aqueous buffer	16 h, pH 6.8		solubility	> 750 µM
COc1cc(C(=O)NC2CCN(C)CC2)c(F)cc1Nc1ncc(C(F)(F)F)c(Oc2cccc3c2C(=O)N(C)C3)n1		human patients, plasma	oral, 25 mg once daily repeated, median		Tmax at steady state	2.48 h
Cc1ccc([C@@H]2O[C@H](CO)[C@@H](O)[C@H](O)[C@H]2O)cc1Cc1ccc(-c2ccc(F)cc2)s1		Japanese type 2 diabetes patients	25 mg, day 4, 24 h urine collection	baseline: baseline	urinary chloride excretion change	-3.31 mEq
Cc1cc(C(=O)NC(C)(C)COc2cccc3c2C(N)=NS(=O)(=O)N3)cc(C)n1		Sprague-Dawley rat, plasma	oral, 10 mg/kg, vehicle 1% methylcellulose	baseline: female over male	AUC(last) ratio	1.06
COC(=O)c1ccc2c(c1)NC(=O)/C2=C(\Nc1ccc(N(C)C(=O)CN2CCN(C)CC2)cc1)c1ccccc1		healthy human	oral, 150 mg single, alone		AUC(0-t), LS geometric mean	137 ng·h/mL
O=C(Nc1nc2cccc(-c3ccc(CN4CCS(=O)(=O)CC4)cc3)n2n1)C1CC1	refers to: metabolism and nutrition disorders	human rheumatoid arthritis patients	oral, 200 mg once daily, 4 weeks, regardless of relatedness		treatment-emergent adverse events	0%
O=C(O)CCC(=O)O.[2H]C([2H])([2H])Oc1cc(C)c2[nH]ccc2c1CN1CC[C@@H](C2CC2)C[C@H]1c1ccc(C(=O)O)cc1	multiple ascending dose	healthy Chinese subjects	50 mg twice daily		subjects with allergic dermatitis TEAE	0%
N#Cc1ccc2c(c1)[C@H]1CCCN(C(=O)c3ccc4[nH]cnc4c3)[C@H]1C2		human	10 mg, day 15		maximum ACTH level	24.4 pmol/L
CCOC(=O)N1C[C@@H](c2ccccc2O)N[C@@H](c2cccnc2)C1	shake-flask, LC-HRMS	aqueous buffer	16 h, pH 6.8		solubility	> 750 µM
Cc1cccc(CNC(=O)c2cn(CCNC(=O)c3ccccc3Sc3c([N+](=O)[O-])ncn3C)c3cc4c(cc3c2=O)OC(F)(F)O4)n1		Sprague-Dawley rat, male, whole blood	intravenous, 5 mg/kg of parent compound		MRT(0-inf)	0.6 ± 0.14 h
Cc1c(C(=O)O)ccc2c3n(nc12)[C@@H]1[C@H](C3)N(CC2CC2)[C@@]2(C(=O)Nc3cc(Cl)ccc32)[C@H]1c1cccc(Cl)c1F	phase Ia trial, refers to: Nausea	cancer patients	oral, dose not given		adverse event incidence	92%
CCN1/C(=C/C(C)=O)Sc2ccc(F)cc21		cynomolgus monkey	oral, 100 mg/kg, 1 h post-dose	baseline: pre-dose	heart rate change	124 ± 20.1%
Brc1cccc([C@H]2COC[C@@H](c3cnc(-c4ccccc4)nc3)N2)c1	shake-flask, LC-HRMS	aqueous buffer	16 h, pH 6.8		solubility	< 4 µM
O=c1[nH]c(=O)n([C@@H]2O[C@H](CO)[C@@H](O)[C@@H]2F)cc1CCCC[18F]		nude mice, RG2 tumour, lung	intravenous, dose not given, 2 h		biodistribution	0.13 ± 0.03 %ID/g
O=C(Nc1cnccc1Cl)N1CCN(Cc2ccc3c(c2)OC(F)(F)O3)CC1	refers to: Headache	human healthy young men	10 mg, multiple dose		adverse event incidence	0%

SMILES	test	test system	setting	scale	endpoint	value
CC(C)c1nc(N(C)S(C)(=O)=O)nc(-c2ccc(F)cc2)c1/C=C/[C@@H](O)C[C@@H](O)CC(=O)O		cynomolgus monkey hepatocytes	37 °C, 10% monkey serum		total uptake clearance	29.9 µL/min/10⁶ cells
O=C(COc1ccc(Cl)cc1)NC12CC(c3nnc([C@H]4C[C@@H](OC(F)(F)F)C4)o3)(C1)C2		human both sexes	oral, 45 mg once daily, 14 days		participants with procedural pain	66.7%
CCC(C)n1ncn(-c2ccc(N3CCN(c4ccc(OCC5COC(Cn6cncn6)(c6ccc(Cl)cc6Cl)O5)cc4)CC3)cc2)c1=O (centres unmarked)		aqueous medium	pH 1		equilibrium solubility	45 µg/mL
O=C1c2ccccc2C(=O)N1CCCc1nc(-c2cccc([N+](=O)[O-])c2)no1		aqueous buffer	pH 7.4		solubility	< 2.03 µg/mL
Cn1cc(Nc2nc(N)nc(-c3cccc(-n4ccc5cc(C6CC6)cc(F)c5c4=O)c3CO)n2)cn1		healthy subjects	oral, 300 mg tablet, fasted		drug-related nausea subjects	0%
COc1ccc2c(=O)n(C)c(-c3ccccc3)nc2c1		Sprague-Dawley rat, heart	oral, 30 mg/kg, 0.25 h		tissue concentration	not detected
Cc1cc(C)c(CNC(=O)c2cc(Cl)c3c(c2C)O[C@@](C)([C@H]2CC[C@H](N(C)C)CC2)O3)c(=O)[nH]1		human relapsed/refractory NHL	oral, 200 mg once daily, onset after cycle 1 day 1		confusional state grade ≥3	4.2%
COc1ccc2[nH]cc(CCNC(=O)Nc3ccc(Cl)c(Cl)c3)c2c1		aqueous buffer	pH 7.4		solubility	< 2.7 µg/mL
Cc1cc(NC2CCN(C(=O)OC3CCN(C(=O)/C=C/CN(C)C)C3)CC2)n2ncc(C(C)C)c2n1 (centres unmarked)	Phase I dose escalation CTCAE v4.0, refers to: dermatitis acneiform	patients with advanced solid tumours	dose not given, QD dosing any grade		patients with adverse event	12%
CN1CCN(c2cccc3c2CCN(C(=O)/C=C/c2c(-n4cnnn4)ccc(Cl)c2F)[C@@H]3C(=O)Nc2ccc(C(=O)O)cc2)C(=O)C1		healthy human subjects	intravenous infusion, 10 mg/h, 2 h		discontinuations due to adverse events	0%
CCO[C@H]1CCN(Cc2c(OC)cc(C)c3[nH]ccc23)[C@H](c2ccc(C(=O)O)cc2)C1		human moderate hepatic impairment, plasma	oral, 200 mg single dose, median		unbound half-life	20.7 h
C[C@H](CCC(=O)NCC(=O)O)[C@H]1CC[C@H]2[C@@H]3[C@H](O)C[C@@H]4C[C@H](O[C@@H]5O[C@H](C(=O)O)[C@@H](O)[C@H](O)[C@H]5O)CC[C@]4(C)[C@H]3CC[C@]12C		human, plasma	control		Cmin	0.0156 ± 0.004 µM
CCn1c(SCC(=O)Nc2ccccc2OC)nnc1-c1c[nH]c2ccccc12		aqueous buffer	pH 7.4		solubility	< 2.18 µg/mL
CCC(CC)[C@H]1CO[C@H](C)[C@@H](c2cccc(Cl)c2)N1	shake-flask, LC-HRMS	aqueous buffer	16 h, pH 6.8		solubility	< 4 µM
N[C@@H](C[18F])C(=O)O	PET imaging	female athymic nude mice, U-87 MG xenograft, tumor	intravenous, 20 min		tracer uptake	2.02 ± 0.39 %ID/cc
CCc1cc(C(=O)NC)c2nccc(N3CCc4c(cc(Cn5ccnc5)cc4-c4cn(C)nc4C(F)(F)F)C3=O)c2c1		Sprague-Dawley rats, male, plasma	oral, 50 mg/kg		MRT(0-inf)	1.9 h
COc1cccc(-c2n[nH]c(SCc3ccccn3)n2)c1OC		Sprague-Dawley rats, both sexes	oral dietary, 100 mg/kg/day, day 90, 12 h		plasma concentration	10200 ng/mL
COc1ccc2c(c1)CN(C(=O)CCN1CCC(Cc3ccccc3)CC1)CC[S@@+]2[O-]	telemetry	conscious male beagle dogs	intravenous, 8 mg/kg, 24 h		QRS duration	33 ± 10 ms
C[C@@H](Oc1ccc(S(C)(=O)=O)cc1C(=O)N1C[C@@H]2C[C@]2(c2cc(C(F)(F)F)on2)C1)C(F)(F)F		healthy young humans, plasma	oral, 25 mg once daily	baseline: AUCtau,ss over AUC(0-inf)	linearity index	0.843
